Measured values gathered from unrelated publications.
± gives the spread as reported.
OPRM1: Mu-type opioid receptor (OPRM1, Homo sapiens, UniProt P35372)
Chain of UniProt P35372 (whole entry, looked up): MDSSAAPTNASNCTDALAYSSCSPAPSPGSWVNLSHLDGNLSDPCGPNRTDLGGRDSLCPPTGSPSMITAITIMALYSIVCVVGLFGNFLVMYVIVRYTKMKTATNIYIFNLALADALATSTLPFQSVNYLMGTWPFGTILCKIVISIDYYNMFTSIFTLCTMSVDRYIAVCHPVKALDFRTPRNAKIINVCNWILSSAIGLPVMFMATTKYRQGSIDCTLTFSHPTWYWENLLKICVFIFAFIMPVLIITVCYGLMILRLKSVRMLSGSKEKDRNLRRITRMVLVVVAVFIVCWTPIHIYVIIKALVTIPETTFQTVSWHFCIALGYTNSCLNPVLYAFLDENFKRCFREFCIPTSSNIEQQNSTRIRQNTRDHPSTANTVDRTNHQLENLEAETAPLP

With Oc1cccc([C@@]23CCC[C@@H](C2)N(CCc2ccccc2)C[C@H]3O)c1 (relative stereo) the Ke was 12 nM (OPRM1; antagonist).
For CCCCCCC(C)(C)c1ccc(C2CC(O)CCC2CCCO)c(O)c1 (stereo not shown), the inhibition was 8% (OPRM1; forskolin-stimulated adenylyl cyclase, agonist; CHO cells; 1 µM).
COc1ccsc1CNCC[C@@]1(c2ccccn2)CCOC2(CCCC2)C1 has an Emax of 95 ± 3% (OPRM1; agonist; HEK-293T).
For O=c1ccc2ccccc2o1, the inhibition was -8.84% (OPRM1; radioligand binding, agonist; 10 µM).
The Emax of Oc1cccc(N2[C@@H]3CC[C@H]2CN(CCCc2ccccc2)C3)c1 is reported as 98.6% (OPRM1; agonist, SAFETYscan; baseline: DAMGO).
CN[C@]1(c2ccccc2Cl)CCCCC1=O has an inhibition of 75% (OPRM1; radioligand binding, agonist, radioligand displacement; 30 µM).
The Emax of C[C@@H](NC(=O)[C@@H](N)Cc1ccc(O)cc1)C(=O)NCC(=O)N(C)[C@@H](Cc1ccccc1)C(=O)NCCO is reported as 25 ± 2.3% (OPRM1).
For C[C@H]1COCCN1c1nc(NCc2cccnc2C(F)(F)F)c2cccnc2n1, the IC50 was 11 µM (OPRM1; binding; CEREP panel).
O=C(O)C(=O)CBr gave a maximum inhibition of 7.21% (human coronavirus OC43; virus-induced cell killing; MRC-5; screen).
O=C(Nc1cnccc1Cl)N1CCN(Cc2ccc3c(c2)OC(F)(F)O3)CC1 has an inhibition of 16% (OPRM1; radioligand binding, inhibitor; 50 µM, human, added: [3H]diprenorphine).
Under “adenylyl cyclase activity increase”, CC/C(=C(\c1ccc(O)cc1)c1ccc(OCCN(C)C)cc1)c1ccccc1 is recorded as 1% (OPRM1; measured: cAMP; CHO cells expressing human MOR; 10 µM; baseline: basal).
Cn1cccc1-c1cccnc1 has an inhibition of -23.7% (OPRM1; binding; 50 µM).
Under agonist activity, CC[C@@H]1CN2CCc3c([nH]c4cccc(OC)c34)[C@@H]2C[C@@H]1/C(=C\OC)C(=O)O is recorded as “inactive” (OPRM1; G protein activation, agonist, BRET; up to 100 µM).
With C[C@@H](NC(=O)[C@@H](N)Cc1ccc(O)cc1)C(=O)NCC(=O)N(C)[C@@H](Cc1ccccc1)C(=O)NCCO the Emax was 203 ± 11.7% (OPRM1; agonist; SH-SY5Y membranes; baseline: basal).
CC[C@@H]1CN2CCc3c([nH]c4cccc(OC)c34)[C@@H]2C[C@@H]1C(=CO)C(=O)OC gave an Emax of 80% (OPRM1; G protein activation, agonist, BRET; baseline: DAMGO).
For CCCS(=O)(=O)Nc1ccc(F)c(C(=O)c2c[nH]c3ncc(-c4ccc(Cl)cc4)cc23)c1F, the maximum inhibition was 0% (human coronavirus OC43; virus-induced cell killing; MRC-5; maximum over 10 doses).

Repeated from above:
For CCCCCCC(C)(C)c1ccc(C2CC(O)CCC2CCCO)c(O)c1 (stereo not shown), the inhibition was 8% (OPRM1; forskolin-stimulated adenylyl cyclase, agonist; CHO cells; 1 µM).
